# Experimental data from different studies.
# Each numbered part is a random draw from the data of one study; scales do not carry over between parts.

# Block 1 — technique: protein-binding microarray; molecule type: double-stranded DNA, one strand shown; medium: in vitro; concentration: 2200 nM top; notes: 60-bp whole probe; added: salmon DNA 0.4 mg/ml; baseline: random background probes; direction: higher = stronger binding; constant ends, left off below: GCCTAGCAC … GTCTTGATTCGCTTGACGCTGCTG
# Target: Interferon regulatory factor 7, full length, phosphomimetic (IRF7, Homo sapiens, UniProt Q92985, residues 1-503, S471D/S472D/S475D/S476D/S477D/S483D/S484D/S487D)
# Residues (chain): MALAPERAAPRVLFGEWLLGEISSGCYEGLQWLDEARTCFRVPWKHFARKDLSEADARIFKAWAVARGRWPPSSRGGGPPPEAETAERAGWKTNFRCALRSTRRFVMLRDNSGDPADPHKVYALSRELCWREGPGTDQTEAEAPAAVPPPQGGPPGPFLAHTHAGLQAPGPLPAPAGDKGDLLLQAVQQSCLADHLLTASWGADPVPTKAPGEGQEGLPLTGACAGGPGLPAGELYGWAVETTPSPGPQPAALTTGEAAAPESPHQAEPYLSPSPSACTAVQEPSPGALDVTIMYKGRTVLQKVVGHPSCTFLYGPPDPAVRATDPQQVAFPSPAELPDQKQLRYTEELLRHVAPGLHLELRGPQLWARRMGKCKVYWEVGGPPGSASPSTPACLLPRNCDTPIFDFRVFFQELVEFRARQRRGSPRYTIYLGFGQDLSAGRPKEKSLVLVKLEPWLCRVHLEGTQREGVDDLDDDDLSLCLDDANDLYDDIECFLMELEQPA
Oligonucleotide,fitted relative affinity
TTAGGTCTGGGTTTCGGTTAGTGCTAG,4.14 z-score
TGAGGACTGCTACTGCTTTAGTGCTAG,-0.261 z-score
GACGGTGTCGGACTGGGGACGTGCTAG,-0.756 z-score
GACGGTCTCCTGTTCCTGACGTGCTAG,1.34 z-score
GACGATATGAGTTTCGAGACGTGCTAG,2.03 z-score
ATTGCTTTCTCTTTCACTGCGTGCTAG,6.78 z-score
GACGGTCTCGGGCTCGGGACGTGCTAG,-0.636 z-score
GACGATTTCGGGAGTGGAGACGTGCTA,0.612 z-score

# Block 2 — technique: aptamer microarray, sandwich; molecule type: DNA with 2'F-ANA; medium: in vitro; concentration: 200 nM; added: Cy3 exosite-II aptamer, 400 nM; direction: higher = stronger binding; oligonucleotide: GGTTGGTGTGGTTGG
# Target: Prothrombin, mature alpha-thrombin (F2, Homo sapiens, UniProt P00734)
# Notes: whole 15-mer aptamer, many near background
Modification,mean fluorescence intensity
2'F-ANA at 1 4 6 11 12 13 14 15,201 a.u.
2'F-ANA at 1 2 3 5 6 7 8 9,70.2 a.u.
2'F-ANA at 1 2 4 7 8 11 13 15,117 a.u.
2'F-ANA at 1 3 4 7 8 10 13 14 15,53.9 a.u.
2'F-ANA at 3 6 7 8 10 12 15,637 a.u.
2'F-ANA at 6 8 11 12 13 15,598 a.u.
2'F-ANA at 1 2 3 4 6 7 11 12 14 15,70.4 a.u.

# Block 3 — technique: universal PBM; molecule type: double-stranded DNA, one strand shown; medium: in vitro; concentration: not given; direction: higher = stronger binding
# Target: Sal-like protein 4, full length isoform B (SALL4, Homo sapiens, UniProt Q9UJQ4-2, residues 1-616)
# Notes: 8-mer, flanks averaged, mean of replicates
# Residues (chain): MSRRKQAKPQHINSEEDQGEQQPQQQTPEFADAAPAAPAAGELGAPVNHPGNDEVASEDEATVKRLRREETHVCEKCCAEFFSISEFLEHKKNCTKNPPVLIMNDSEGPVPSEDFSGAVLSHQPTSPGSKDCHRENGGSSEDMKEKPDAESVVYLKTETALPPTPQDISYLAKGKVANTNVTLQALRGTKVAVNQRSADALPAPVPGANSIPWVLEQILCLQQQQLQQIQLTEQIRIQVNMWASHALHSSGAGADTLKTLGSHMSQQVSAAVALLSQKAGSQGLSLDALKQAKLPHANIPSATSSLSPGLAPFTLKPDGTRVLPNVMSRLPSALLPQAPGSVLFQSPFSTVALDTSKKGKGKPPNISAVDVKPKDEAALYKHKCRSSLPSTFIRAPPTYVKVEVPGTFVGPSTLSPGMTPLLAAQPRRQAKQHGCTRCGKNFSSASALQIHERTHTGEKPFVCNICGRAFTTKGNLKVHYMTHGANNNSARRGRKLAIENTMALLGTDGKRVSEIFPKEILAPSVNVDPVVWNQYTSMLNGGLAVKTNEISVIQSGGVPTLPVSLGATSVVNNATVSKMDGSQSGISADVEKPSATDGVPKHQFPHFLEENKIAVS
Oligonucleotide,E-score
CTGCCACC,-0.187
ATCGTGCG,0.148
ATCGGACC,-0.22
AATTTCTA,0.312
ACTAGAGG,-0.0373

# Single results of other studies
Molecule,target,test,system,setting,scale,quantity,value
"PhoQ, residues 284 288 289 292 302 303 TLASMF","PhoP, residues 12 14 15 18 19 LYHSL (Escherichia coli, UniProt P23836)","Sort-seq, item: YFP reporter",E. coli,"PhoQ-PhoP variant library, added: 10 µM Mg2+","baseline: high Mg2+ state, higher = stronger signaling",fold induction,1.1
